Measured values of several laboratories.
Each numbered part is a random draw from the data of one study; scales do not carry over between parts. Positions count from the first letter of the parent shown.

Block 1
Target: Phosphate system positive regulatory protein PHO4, full length, GST-tagged (PHO4, Saccharomyces cerevisiae, UniProt P07270, residues 1-312)
Method: competition protein-binding microarray
Molecule type: double-stranded DNA, one strand shown
Matrix: in vitro
Tested at: 2 µM
Setting: whole 60-bp probe, lowest competitor level
Added: Cbf1 competitor, 0.05 µM
Reading: higher = stronger binding
Quantity: fluorescence intensity
Shared flanks, not repeated: … GTCTTGATTCGCTTGACGCTGCTG
Target sequence (chain): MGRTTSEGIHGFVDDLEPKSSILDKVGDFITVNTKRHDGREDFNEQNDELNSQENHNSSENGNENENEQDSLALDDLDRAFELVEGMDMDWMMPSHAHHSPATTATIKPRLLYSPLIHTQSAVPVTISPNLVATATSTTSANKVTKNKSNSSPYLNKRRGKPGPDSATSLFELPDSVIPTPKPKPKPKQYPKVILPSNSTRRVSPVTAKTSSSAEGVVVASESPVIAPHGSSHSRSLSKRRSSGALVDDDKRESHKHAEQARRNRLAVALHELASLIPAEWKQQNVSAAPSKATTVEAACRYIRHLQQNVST
CCGCGAGTTCGTAGGCACGTTAGTTGGTTTCGACGA: 8230 a.u.
CTTTCCCGATCTTGGCACGTGTTTTTAGCACATTTG: 16200 a.u.
ACAAGACGCTGCCATCACGCAAACTATGTTTTGACA: 4930 a.u.
AAACCTCTCTGCTTCTACCAAAGTCCTAAAATCTCC: 3100 a.u.
GCAGCCAGGAGCTGGCACGGCGCCAACTGAAAAGTT: 4560 a.u.
GAAAATTGCCGTTGTCATGCTGAGCATTTGTCGTAC: 4490 a.u.
AAAGCGGTAATTTGGGACGTGGGTGCAGATATCTAT: 7710 a.u.
ACCTATAACAAGCATCACAGCATATCAATGGGCGGT: 5370 a.u.
AAATTACTAAGTTGTCACTCTACTTACCCCGTATGA: 3410 a.u.
AAATTACTAAGTTGTTGCGTGGGTGACGCCGTATGA: 6600 a.u.

Block 2
Target: Protein C-ets-1 (ETS1, Homo sapiens, UniProt P14921, residues 1-441, Y397A, full length assumed)
Method: protein-binding microarray
Molecule type: double-stranded DNA, one strand shown
Matrix: in vitro
Tested at: not given
Setting: k-mer, scored over probes, only values ≥0.25
Reading: higher = stronger binding
Quantity: E-score
Construct (chain): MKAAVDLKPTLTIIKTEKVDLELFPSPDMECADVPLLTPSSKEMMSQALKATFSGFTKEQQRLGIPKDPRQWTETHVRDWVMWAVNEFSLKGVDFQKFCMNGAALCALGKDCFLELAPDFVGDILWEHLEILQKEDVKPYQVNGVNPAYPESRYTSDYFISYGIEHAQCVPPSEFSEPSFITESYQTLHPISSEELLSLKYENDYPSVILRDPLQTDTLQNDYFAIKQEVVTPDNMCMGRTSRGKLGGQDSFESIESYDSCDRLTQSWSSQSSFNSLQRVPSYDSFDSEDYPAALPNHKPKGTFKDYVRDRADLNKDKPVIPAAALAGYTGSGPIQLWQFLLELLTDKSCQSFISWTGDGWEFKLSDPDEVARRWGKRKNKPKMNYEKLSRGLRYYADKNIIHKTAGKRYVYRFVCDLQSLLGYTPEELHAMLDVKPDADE
TGTCGGAA: 0.371
GTACTACA: 0.263
TACTGACA: 0.284
GCAAACTA: 0.267
GACTGACA: 0.287
ACCGCAAA: 0.321
CGTTTGTA: 0.264

Block 3
Target: CCNB3, cyclin fold, Cln2 fusion (human)
Method: yeast growth competition, sequencing
Matrix: yeast
Setting: weak parent motif
Reference: not given
Reading: higher = stronger binding
Quantity: normalised enrichment score
Starting sequence: CDC25A docking peptide (human); PPHRRRLLFACSP
PPHRKRLLLACSP [R5K F9L]: 0.241
PPHRCRLLFACSP [R5C]: 0.141
PPPRRRLLFACSP [H3P]: 0.107
PPHRRRLEFACSP [L8E]: -0.0222
PPHRRRLLFICSP [A10I]: -0.375
WPHRRRLLFACSP [P1W]: 0.149
PPHRRRLLFAMSP [C11M]: -0.288
PPHTRRLLFACSP [R4T]: 0.434
PQHRRRLLFACSP [P2Q]: 0.441
PPHMRRLLFACSP [R4M]: 0.0532
PPHRRRALFACSP [L7A]: 0.432
PPHRRRLLFWCSP [A10W]: 0.121
PPHRIRLLFACSP [R5I]: 0.457
PPHRRRLLFAKSP [C11K]: -0.299
PPHRDRLLFACSP [R5D]: -0.0663
PPHRRELLFACSP [R6E]: 0.247
PPHRRMLLFACSP [R6M]: 0.414
PPHRRRLLFAESP [C11E]: 0.135
PPHRRRLLFACSV [P13V]: 0.131
PPHRRRLVFACSP [L8V]: 0.179
PPHRRRLLRACSP [F9R]: 0.639
PPHRRRTLFACSP [L7T]: 0.571
PPHRRVLLFACSP [R6V]: 0.344
PPHRRRLGFACSP [L8G]: 0.0295
PPHRRRLQFACSP [L8Q]: -0.436

Block 4
Target: NFE2L3, bZIP domain (human)
Method: DHFR protein complementation
Matrix: yeast
Setting: single substitutions, most at no-binding floor
Reference: wild-type JUN-FOS pair
Reading: higher = stronger binding
Quantity: binding fitness
Starting sequence: JUN, bZIP domain (human); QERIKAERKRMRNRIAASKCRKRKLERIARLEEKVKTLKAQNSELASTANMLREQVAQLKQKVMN; partner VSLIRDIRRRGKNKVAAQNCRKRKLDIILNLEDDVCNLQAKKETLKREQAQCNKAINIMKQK
E54L: -1.45 natural log
K36W: -1.39 natural log
A49C: -1.51 natural log
T48I: -1.37 natural log
S43A: -1.23 natural log
S43H: -1.52 natural log
M51Q: -1.35 natural log
T37N: -1.41 natural log

Other studies, line by line
PhoQ, residues 284 288 289 292 302 303 SMYGEC — fold induction (PhoP, residues 12 14 15 18 19 NHTVL (Escherichia coli, UniProt P23836); Sort-seq, item: YFP reporter; E. coli; PhoQ-PhoP variant library, added: 10 µM Mg2+; reference: high Mg2+ state, higher = stronger signaling): 4.32

Excerpt of the above (block 1):
GCAGCCAGGAGCTGGCACGGCGCCAACTGAAAAGTT: 4560 a.u.
GAAAATTGCCGTTGTCATGCTGAGCATTTGTCGTAC: 4490 a.u.
AAAGCGGTAATTTGGGACGTGGGTGCAGATATCTAT: 7710 a.u.
ACCTATAACAAGCATCACAGCATATCAATGGGCGGT: 5370 a.u.
AAATTACTAAGTTGTCACTCTACTTACCCCGTATGA: 3410 a.u.
AAATTACTAAGTTGTTGCGTGGGTGACGCCGTATGA: 6600 a.u.
